# Experimental data gathered from unrelated publications.
# Numbered parts are unrelated; each lists some results of a single study. Several values in a cell are separate wells, animals, samples, runs or records.
# Sequence of UniProt P28335 (whole entry, looked up): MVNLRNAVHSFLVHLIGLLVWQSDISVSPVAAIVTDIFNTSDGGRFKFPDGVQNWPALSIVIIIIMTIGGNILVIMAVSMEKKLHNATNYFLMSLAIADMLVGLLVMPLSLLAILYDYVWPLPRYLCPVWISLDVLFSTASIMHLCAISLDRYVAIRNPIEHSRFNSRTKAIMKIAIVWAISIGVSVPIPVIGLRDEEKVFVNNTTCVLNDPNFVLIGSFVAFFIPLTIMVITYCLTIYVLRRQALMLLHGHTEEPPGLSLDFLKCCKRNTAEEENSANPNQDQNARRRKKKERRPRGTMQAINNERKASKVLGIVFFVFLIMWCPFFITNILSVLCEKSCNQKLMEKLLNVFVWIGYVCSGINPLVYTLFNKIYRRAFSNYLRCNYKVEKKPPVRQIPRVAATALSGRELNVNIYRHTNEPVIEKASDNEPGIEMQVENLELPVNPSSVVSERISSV

# Sample 1
# Compound: O=C1CCC(N2Cc3c(ccc4c3OCC43CCN(Cc4ccccc4)CC3)C2=O)C(=O)N1 (stereo not drawn)
system,setting,plasma concentration
"male ICR mice, plasma","oral, 3 mg/kg, 2 h",179 ng/mL
"ICR mouse, male","intravenous, 1 mg/kg, 1 h",124 ng/mL
"ICR mouse, male, plasma","oral, 3 mg/kg, 1 h",464 ng/mL and 340 ng/mL
"Sprague Dawley rat, male, plasma","oral, 3 mg/kg, 0.25 h",40.1 ng/mL and 28.3 ng/mL

# Further values, each from its own experiment
Structure (SMILES),target or system,test,system,setting,how to read,quantity,value
Cc1cccc(C)c1N=C1NCCCS1,A-375,,,"100 µM, 36 h",,viability,114%
CNC(=O)c1ccc(-c2cnn3ccc(C(=O)N(C)c4ccc(Cl)c(C(=O)OC)c4)cc23)cc1,Cryptosporidium parvum,time-kill,"HCT-8, nanoluciferase-expressing","2.222 µM, 4 h",baseline: DMSO control,luminescence remaining,98.1% and 126%
CC(O)(CS(=O)(=O)c1ccc(F)cc1)C(=O)Nc1ccc(C#N)c(C(F)(F)F)c1 (stereo not drawn),A-375,,,"100 µM, 36 h",,viability,43.6%
CCOC(=O)c1cc2cc(-c3cc(C(=O)NCc4ccc(C(=O)O)cc4)nn3C)ccc2[nH]1,"HTR2C (Homo sapiens, UniProt P28335)","binding, radioligand binding",,10 µM,,inhibition,3.56%
C=C1CC[C@@]2(O)[C@H]3Cc4ccc(O)c5c4[C@@]2(CCN3CC2CC2)[C@H]1O5,A-375,,,"100 µM, 36 h",,viability,110%

# A few entries again (further values, each from its own experiment):
Structure (SMILES),target or system,test,system,setting,how to read,quantity,value
C=C1CC[C@@]2(O)[C@H]3Cc4ccc(O)c5c4[C@@]2(CCN3CC2CC2)[C@H]1O5,A-375,,,"100 µM, 36 h",,viability,110%
